{"data": "Experimental data collected from several papers", "target": "Neutrophil elastase (ELANE, Homo sapiens, UniProt P08246)", "Sequence (P08246 30-267, as in one of the studies)": "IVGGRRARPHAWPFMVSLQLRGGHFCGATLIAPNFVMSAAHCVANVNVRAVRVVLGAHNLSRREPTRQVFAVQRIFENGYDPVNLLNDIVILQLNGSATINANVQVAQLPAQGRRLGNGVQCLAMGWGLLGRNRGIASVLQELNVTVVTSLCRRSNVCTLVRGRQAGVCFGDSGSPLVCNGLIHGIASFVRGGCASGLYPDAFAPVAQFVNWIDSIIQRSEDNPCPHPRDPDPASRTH", "note": "Each line is one published result; not all experiments were run side by side. ± gives the spread as reported."}
{"SMILES": "O=C(Nc1cc(C(=O)Nc2ccc(S(=O)(=O)O)cc2)cc(C(=O)Nc2ccc(S(=O)(=O)O)cc2)c1)Nc1cc(C(=O)Nc2ccc(S(=O)(=O)O)cc2)cc(C(=O)Nc2ccc(S(=O)(=O)O)cc2)c1", "test": "enzyme activity, inhibitor, chromogenic substrate hydrolysis", "conditions": "pH 7.4, 37 °C, 100 mM NaCl, added: substrate S-1384", "endpoint": "Hill slope", "result": "2.3 ± 0.3"}
{"SMILES": "Cc1ccc(S(=O)(=O)N2N=Cc3ccsc3B2O)cc1", "test": "enzyme activity, inhibitor, fluorimetric", "endpoint": "ligand efficiency", "result": 0.39}
{"SMILES": "O=C(Nc1ccc(C(=O)Nc2ccc(C(=O)Nc3ccc(S(=O)(=O)O)c4cc(S(=O)(=O)O)cc(S(=O)(=O)O)c34)cc2)cc1)Nc1ccc(C(=O)Nc2ccc(C(=O)Nc3ccc(S(=O)(=O)O)c4cc(S(=O)(=O)O)cc(S(=O)(=O)O)c34)cc2)cc1", "test": "substrate S-1384 hydrolysis", "conditions": "pH 7.4, 37 °C, enzyme 300 nM", "endpoint": "Km", "result": "216 ± 55.1 µM"}
{"SMILES": "CCC1(CC)C(=O)N(c2cccc(CN3CCN(c4cc(C)nc5ccc(Br)cc45)CC3)c2)C1=O", "test": "inhibitor, competitive ABPP", "test system": "U-937 cell lysate", "conditions": "10 µM, added: FP-biotin 10 µM", "how to read": "baseline: DMSO over compound", "endpoint": "SILAC ratio", "result": "> 3"}
{"SMILES": "Cc1ccc(C(=O)Nc2cc(S(=O)(=O)O)cc3ccc(S(=O)(=O)O)cc23)cc1NC(=O)Nc1cc(C(=O)Nc2cc(S(=O)(=O)O)cc3ccc(S(=O)(=O)O)cc23)ccc1C", "test": "enzyme activity, inhibitor, chromogenic substrate hydrolysis", "conditions": "pH 7.4, 37 °C, 100 mM NaCl, added: substrate S-1384", "endpoint": "Hill slope", "result": "1.2 ± 0.4"}
{"SMILES": "Cc1nc2ccccc2n1S(=O)(=O)c1ccc2c(c1)C(=O)CC2=O", "test": "enzyme activity, inhibitor, fluorescence", "conditions": "10 µM", "endpoint": "inhibition", "result": "25.4%"}
{"SMILES": "OB1OCc2ccccc21", "test": "enzyme activity, inhibitor, fluorimetric", "conditions": "up to 100 µM", "endpoint": "inhibition", "result": "inactive"}
{"SMILES": "O=C(Nc1ccc(C(F)(F)F)cc1)Nc1ccccc1S(=O)(=O)O", "test": "enzyme activity, inhibitor, fluorescence", "conditions": "100 µM", "endpoint": "inhibition", "result": "41.2%"}
{"SMILES": "O=C1CC(=O)c2cc(S(=O)(=O)n3cnc4ccccc43)ccc21", "test": "enzyme activity, inhibitor, fluorescence", "conditions": "10 µM", "endpoint": "inhibition", "result": "44.9%"}
{"note": "Excerpt of the above:"}
{"SMILES": "Cc1nc2ccccc2n1S(=O)(=O)c1ccc2c(c1)C(=O)CC2=O", "test": "enzyme activity, inhibitor, fluorescence", "conditions": "10 µM", "endpoint": "inhibition", "result": "25.4%"}
